Experimental data collected from several papers.
Protocols differ between the studies behind these lines. ± gives the spread as reported. In brackets after ≈: the same amount, converted by molar mass.

Under “MIC of meropenem”, O=C(O)c1ncsc1-c1ccccc1 is recorded as 0.25 µg/mL (Escherichia coli; DH5α with VIM-2 plasmid; 100 µg/mL, added: meropenem).
For CC[C@H](C)[C@H](NC(=O)[C@H](C)NC(=O)[C@@H](NC(=O)[C@H](CC(=O)O)NC(=O)[C@H](CCCCN)NC(=O)[C@H](CO)NC(=O)[C@@H](NC(=O)[C@H](CC(N)=O)NC(=O)[C@H](C)NC(=O)[C@@H](NC(=O)[C@H](CCC(=O)O)NC(=O)[C@H](CCCCN)NC(=O)[C@@H](NC(=O)[C@@H](NC(=O)[C@H](Cc1c[nH]cn1)NC(=O)[C@H](CCCCN)NC(=O)[C@@H](NC(=O)[C@H](CCCCN)NC(=O)[C@H](CCCCN)NC(=O)[C@@H](NC(=O)[C@H](CC(C)C)NC(=O)[C@H](CCCCN)NC(=O)[C@H](CC(N)=O)NC(=O)[C@H](Cc1ccccc1)NC(=O)[C@H](CCCNC(=N)N)NC(=O)[C@H](CCCCN)NC(=O)[C@H](CCCNC(=N)N)NC(=O)[C@H](Cc1ccccc1)NC(=O)CN)C(C)C)C(C)C)[C@@H](C)O)[C@@H](C)CC)[C@@H](C)O)C(C)C)C(C)C)C(=O)N[C@H](C(=O)N[C@@H](C)C(=O)NCC(=O)N[C@@H](CO)C(=O)NCC(=O)N[C@H](C(=O)N[C@@H](C)C(=O)N[C@H](C(=O)NCC(=O)N[C@@H](C)C(=O)N[C@@H](C)C(=O)N[C@@H](CCSC)C(N)=O)C(C)C)C(C)C)C(C)C, the MIC was 0.125 mg/L (≈ 0.0289 µM) (Escherichia coli; ATCC 25922, CAMHB with 10% mouse serum).
With O=C1C=CC(=O)N1CCCCOCc1cn(CCCCN2C(=O)C=CC2=O)nn1 the IC50 was greater than 100 µM (Escherichia coli; growth, turbidity OD600; ΔtolC; 24 h).
For COc1ccc2c(c1OC)C[NH+]1CCc3cc4c(cc3C1C2)OCO4.[Cl][Fe-]([Cl])([Cl])[Cl] (stereo not shown), the MBC was greater than 1600 µM (Escherichia coli; 24 h, 37 °C).
CCC(=O)OCCSCCC(=O)N[C@H](CCN)C(=O)N[C@@H](CCN)C(=O)N[C@@H](CCN)C(=O)N[C@@H](CC(C)C)C(=O)N[C@H](Cc1ccccc1)C(=O)N[C@@H](CCN)C(=O)N[C@@H](CCN)C(=O)N[C@@H](CC(C)C)C(N)=O has an MBC of 32 µM (Escherichia coli; ATCC 10546; 24 h, 37 °C).
For C#CCCCC(=O)N[C@H]1CCOC1=O, the inhibition was 46 ± 2% (Escherichia coli; LuxR reporter, antagonist; DH5α sensor strain; 1 µM, added: OHHL 200 nM).
For CC[C@H](C)[C@H](NC(=O)[C@H](Cc1c[nH]c2ccccc12)NC(=O)c1ccccc1)C(=O)N[C@@H](CCCNC(=N)N)C(=O)N[C@@H](Cc1ccc(O)cc1)C(=O)N[C@@H](CCCCN)C(=O)N[C@@H](Cc1c[nH]c2ccccc12)C(=O)N[C@H](CCCNC(=N)N)C(=O)N[C@@H](CCCNC(=N)N)C(=O)N[C@@H](CCCCN)C(=O)N[C@@H](CCCCN)C(=O)N[C@H](C(=O)N[C@@H](CCCNC(=N)N)C(=O)N[C@@H](Cc1ccc(O)cc1)C(=O)N[C@@H](Cc1c[nH]c2ccccc12)C(=O)N[C@H](C(=O)NCC(=O)N1CCC[C@H]1C(N)=O)[C@@H](C)O)C(C)C, the IC50 was 15.8 µM (Escherichia coli; growth; DH5α; 16 h, 37 °C).
For CC[C@H](C)[C@H](NC(=O)[C@H](Cc1ccccc1)NC(=O)[C@H](CCCCN)NC(=O)[C@H](CCCCN)NC(=O)CNC(=O)[C@H](C)NC(=O)[C@H](CC(N)=O)NC(=O)[C@H](CCCCN)NC(=O)[C@H](Cc1ccccc1)NC(=O)[C@H](CC(N)=O)NC(=O)[C@H](CCC(=O)O)NC(=O)[C@H](Cc1c[nH]c2ccccc12)NC(=O)[C@H](CC(C)C)NC(=O)[C@@H](N)CO)C(=O)N[C@@H](CC(C)C)C(=O)N[C@@H](CC(N)=O)C(=O)N[C@H](C(=O)N[C@@H](CC(C)C)C(=O)N[C@@H](CC(=O)O)C(=O)N[C@@H](CCCCN)C(N)=O)[C@@H](C)CC, “time to 100 % killing” read no more than 120 min (Escherichia coli; time-kill colony count; ATCC 8739; 2-4 x MIC).
The organ weight of O=C1NC2(CC2)COc2ncc(F)cc2[C@H]2COCCN2c2ccn3ncc1c3n2 is reported as 3.52 ± 1.04 g (Sprague-Dawley rat, male, kidneys; oral, 10 mg/kg/day, 4 weeks).
COc1c(NC(=O)c2ccc(NC(=O)c3ccc(NC(=O)[C@H](CC#N)NC(=O)c4ccc(NC(=O)[C@@H](N)Cc5ccccc5)cc4)cc3)c(OC)c2O)ccc(C(=O)O)c1O — result for “MIC fold change”: 8 fold (Escherichia coli; clones expressing AraC family proteins; concentration not given; baseline: empty vector).
For CC[C@H](C)CCCCC(=O)N[C@@H](CCN)C(=O)N[C@H](C(=O)N[C@@H](CCN)C(=O)N[C@H]1CCNC(=O)[C@H]([C@@H](C)O)NC(=O)[C@H](CCN)NC(=O)[C@H](CCN)NC(=O)[C@H](CC(C)C)NC(=O)[C@@H](CC(C)C)NC(=O)[C@H](CCN)NC1=O)[C@@H](C)O, “MIC fold change” read 2.37 (Escherichia coli; daily serial passaging; ATCC 8739; highest sub-MIC, 18 days; baseline: initial MIC).
For O=C1C=CC(=O)N1CCCCCCOCc1cn(CCCCCCN2C(=O)C=CC2=O)nn1, the IC50 was greater than 100 µM (Escherichia coli; growth, turbidity OD600; ΔtolC; 24 h).
CC[C@H](C)[C@H](NC(=O)[C@H](CC(C)C)NC(=O)[C@H](CC(=O)O)NC(=O)[C@H](CCCNC(=N)N)NC(=O)[C@H](Cc1c[nH]c2ccccc12)NC(=O)[C@@H](N)CC(C)C)C(=O)N[C@@H](CS)C(=O)N[C@@H](CC(C)C)C(=O)N[C@@H](CS)C(=O)N[C@@H](CCCNC(=N)N)C(=O)N[C@@H](CC(N)=O)C(=O)N[C@@H](CCCNC(=N)N)C(=O)N[C@@H](CCCNC(=N)N)C(=O)N[C@@H](CS)C(=O)N[C@@H](CC(N)=O)C(=O)N[C@@H](CCCNC(=N)N)C(=O)NCC(=O)N[C@@H](CCC(N)=O)C(=O)N[C@@H](CC(C)C)C(=O)N[C@@H](Cc1ccccc1)C(=O)N1CCC[C@H]1C(=O)NCC(=O)N[C@@H](Cc1c[nH]c2ccccc12)C(=O)N[C@@H](CS)C(=O)N1CCC[C@H]1C(=O)NCC(=O)N[C@@H](Cc1c[nH]c2ccccc12)C(=O)N[C@@H](Cc1c[nH]c2ccccc12)C(=O)N[C@@H](CC(C)C)C(=O)N[C@@H](CCCNC(=N)N)C(=O)N[C@@H](CS)C(=O)N[C@@H](CS)C(=O)N[C@@H](CCCNC(=N)N)C(=O)N[C@@H](CCCNC(=N)N)C(N)=O gave a bactericidal rate of 75% (Escherichia coli; colony count; 50 µg/mL, 2 h, 37 °C, pretreated trypsin intestinal fluid, added: trypsin 1 mg/mL).
CN(C)S(=O)(=O)c1ccc(S(=O)(=O)N2CCC(n3c(=O)[nH]c4ccccc43)CC2)cc1 gave a streptomycin concentration of 3.92 µg/mL (Escherichia coli; Keio wild type; concentration not given, 48 h).
O=C(O)CN(CC(=O)O)CP(=O)(O)O: “fold MIC reduction” 64 (Escherichia coli; VIM-2 producer; 32 µg/mL, added: meropenem; baseline: meropenem alone).
The MBC of CC(C)C[C@H](NC(=O)[C@H](CCN)NC(=O)[C@H](CCN)NC(=O)[C@@H](Cc1ccccc1)NC(=O)[C@H](CC(C)C)NC(=O)[C@H](CCN)NC(=O)[C@H](CCN)NC(=O)[C@@H](CCN)NC(=O)CCSCCOC(=O)C(C)(C)C)C(N)=O is reported as 16 µM (Escherichia coli; ATCC 10546; 24 h, 37 °C).
C=CS(=O)(=O)NCCCCOCc1cn(CCCCNS(=O)(=O)C=C)n[n+]1C has an IC50 of greater than 100 µM (Escherichia coli; growth, turbidity OD600; ΔtolC; 24 h).
With CCOC(=O)C1(Cc2ccccc2)Oc2cc(F)ccc2N(Cc2ccccc2)C1=O (stereo not shown) the OD600 was greater than 0.9 (Escherichia coli; bacterial growth; BL21(DE3); 100 µM, 4 h).
CC(C)C[C@H](NC(=O)[C@H](CCN)NC(=O)[C@H](CCN)NC(=O)[C@@H](Cc1ccccc1)NC(=O)[C@H](CC(C)C)NC(=O)[C@H](CCN)NC(=O)[C@H](CCN)NC(=O)[C@@H](CCN)NC(=O)[C@@H](N)CS)C(N)=O gave an MBC of 32 µM (Escherichia coli; ATCC 10546; 24 h, 37 °C).
CC[C@H](C)[C@H](NC(=O)[C@@H](CCCNC(=N)N)NC(=O)[C@H](CCCNC(=N)N)NC(=O)[C@H](Cc1ccccc1)NC(=O)[C@H](Cc1c[nH]c2ccccc12)NC(=O)[C@H](CCCNC(=N)N)NC(=O)[C@@H]1CCCN1C(=O)[C@H](CCCNC(=N)N)NC(=O)[C@@H]1CCCN1C(=O)[C@H](CC(C)C)NC(=O)[C@H](Cc1ccc(O)cc1)NC(=O)[C@@H]1CCCN1C(=O)[C@@H]1CCCN1C(=O)[C@H](CCCCN)NC(=O)[C@H](CC(=O)O)NC(=O)[C@@H](N)C(C)C)C(=O)N[C@@H](Cc1ccc(O)cc1)C(=O)N[C@@H](CC(N)=O)C(=O)N[C@H](CCCNC(=N)N)C(N)=O has an MIC of 32 mg/L (≈ 12.7 µM) (Escherichia coli; broth microdilution; MC4100; 18 h, 37 °C, 25% MHB2).
With C#CCN1C(=O)C(CC#C)(C(=O)OCC)Oc2ccccc21 (stereo not shown) the OD600 was greater than 0.9 (Escherichia coli; bacterial growth; BL21(DE3); 100 µM, 4 h).
C=C(C)C(=O)NCCCCCCCCCCOCc1cn(CCCCCCCCCCNC(=O)C(=C)C)n[n+]1C has an IC50 of 7.2 ± 0.5 µM (Escherichia coli; growth, turbidity OD600; ΔtolC; 24 h).
CC[C@H](C)[C@H](N)C(=O)N[C@@H](CC(C)C)C(=O)N[C@@H](CO)C(=O)N[C@@H](C)C(=O)N[C@H](C(=O)N[C@@H](Cc1c[nH]c2ccccc12)C(=O)N[C@@H](CO)C(=O)NCC(=O)N[C@H](C(=O)N[C@@H](CCCCN)C(=O)N[C@@H](CO)C(=O)N[C@@H](CC(C)C)C(=O)N[C@@H](Cc1ccccc1)C(N)=O)[C@@H](C)CC)[C@@H](C)CC: “relative growth rate” 0.177 (Escherichia coli; K-12 MG1655; concentration not given, 24 h, 37 °C; baseline: no peptide).
C=CS(=O)(=O)NCCCCCCCCOCc1cn(CCCCCCCCNS(=O)(=O)C=C)n[n+]1C gave an IC50 of greater than 100 µM (Escherichia coli; growth, turbidity OD600; ΔtolC; 24 h).
CC(C)C[C@H](NC(=O)[C@H](Cc1ccccc1)NC(=O)[C@H](CCC(N)=O)NC(=O)[C@H](Cc1ccc(O)cc1)NC(=O)[C@H](CCCCN)NC(=O)[C@@H]1CCCN1C(=O)[C@H](CCCNC(=N)N)NC(=O)[C@H](CCC(N)=O)NC(=O)[C@H](Cc1c[nH]c2ccccc12)NC(=O)[C@H](CS)NC(=O)[C@H](Cc1c[nH]c2ccccc12)NC(=O)[C@H](Cc1ccccc1)NC(=O)[C@H](CCCNC(=N)N)NC(=O)[C@H](CCCCN)NC(=O)[C@H](CCCCN)NC(=O)[C@H](CCCCN)NC(=O)[C@@H](NC(=O)[C@@H](NC(=O)[C@H](CC(C)C)NC(=O)[C@@H](N)CO)C(C)C)[C@@H](C)O)C(=O)O gave an MBC of 32 µg/mL (Escherichia coli; K12 MG1655).

Excerpt of the above:
C=C(C)C(=O)NCCCCCCCCCCOCc1cn(CCCCCCCCCCNC(=O)C(=C)C)n[n+]1C has an IC50 of 7.2 ± 0.5 µM (Escherichia coli; growth, turbidity OD600; ΔtolC; 24 h).
